Results of several laboratories.
Protocols differ between the studies behind these lines. Values joined by “and” are separate records of one study, mostly repeats; a detail may differ. Numbers after ± are the reported error.

| Structure (SMILES) | test | system | conditions | scale | quantity | value |
| --- | --- | --- | --- | --- | --- | --- |
| CN(C)CCCNC(=O)/C(=C/CCCCC(=O)NO)COc1cccc2ccccc12 | – | human patients | intravenous, 250 mg/m2, day 1, single dose, mean | – | volume of distribution at steady state | 46.4 L |
| O=C(O)CCC(=O)O.[2H]C([2H])([2H])Oc1cc(C)c2[nH]ccc2c1CN1CC[C@@H](C2CC2)C[C@H]1c1ccc(C(=O)O)cc1 | ECG | healthy Chinese subjects | oral, 50 mg twice daily, multiple ascending dose | – | TEAE T wave abnormality | 12.5% |
| NC(=S)NN=Cc1ncccc1N | LC-MS/MS | human, plasma | oral, geometric mean | – | Cmax/dose | 4.14 µg/L/mg |
| CN(C)C(=N)N=C(N)N | refers to: vascular disorders | healthy men | oral, dose not given, 8 days, treatment-emergent, crossover trial | – | subjects with adverse event | 9.1% |
| O=C(Nc1cnccc1Cl)N1CCN(Cc2ccc3c(c2)OC(F)(F)O3)CC1 | refers to: Presyncope | human healthy young women | 100 mg, multiple dose | – | adverse event incidence | 0% |
| C=CC[C@@H]1/C=C(\C)C[C@H](C)C[C@H](OC)[C@H]2O[C@@](O)(C(=O)C(=O)N3CCCC[C@H]3C(=O)O[C@H](/C(C)=C/[C@@H]3CC[C@@H](O)[C@H](OC)C3)[C@H](C)[C@@H](O)CC1=O)[C@H](C)C[C@@H]2OC | LC-MS/MS | rat, whole blood | intraperitoneal, 0.5 mg/kg/day, 18 days | – | trough blood level | 2.4 ± 0.6 µg/L |
| N#CCNC(=O)c1ccc(-c2ccnc(Nc3ccc(N4CCOCC4)cc3)n2)cc1 | – | healthy human volunteers, plasma | oral, dose not given, with: single-dose rifampin | baseline: compound alone | AUCinf ratio | 157% |
| [18F]c1ccc(-c2ccc3c(c2)[nH]c2ccncc23)cn1 | microPET/CT imaging | B6SJL mouse, normal, brain | intravenous, 5 min | – | SUV | 1.47 ± 0.164 |
| COc1ccc2c(c1)CN(C(=O)CCN1CCC(Cc3ccccc3)CC1)CC[S@@+]2[O-] | telemetry | conscious dog | intravenous, 2 mg/kg, 2 h | – | diastolic blood pressure | 83 ± 15 mmHg |
| CN1CCN(C(=O)c2ccc(C3CCCCC3)cc2)CC1=O | liver microsome stability | cynomolgus liver microsomes | 1 µM | – | hepatic clearance | 16 mL/min/kg |
| COC1=C(OC)[C@H](O)[C@H](C/C=C(\C)CC/C=C(\C)CCC=C(C)C)[C@@H](C)C1=O | – | mouse, BALB/c, male, whole blood | oral, 50 mg/kg, 7 h | – | blood concentration | 20.2 nM and 17 nM |
| C[C@@H]1OC(=O)[C@H](Cc2ccccc2)[C@H]1O | soil adsorption | soil | pH 6.9, organic carbon 0.8 % | – | KFoc | 215 mL/g |
| O=C(CCC(C(=O)[O-])N1CCN(C(CCC(=O)NCC(O)CO)C(=O)[O-])Cc2cccc(n2)CN(C(CCC(=O)NCC(O)CO)C(=O)[O-])CC1)NCC(O)CO.[Gd+3] (stereo not drawn) | ICP-MS | rat, femur epiphysis | intravenous, 0.6 mmol Gd/kg, 1 week | – | Gd concentration | 2.2 nmol/g |
| CCCCOC(=O)N1CCN(C(=O)[C@H](CP(=O)(O)O)NC(=O)c2cc(N3CC[C@H](OC)C3)nc(-c3ccccc3)n2)CC1 | refers to: Chloride | human, blood | 8 mg, 24 h | – | change from baseline | 0.2 ± 2.2 mmol/L |
| CC(C)(c1ccc(O)cc1)c1ccc(O)cc1 | – | whole cow milk | 200 nM nominal | – | dose fraction in skim milk | 56.8% |
| CCn1c(C(=O)N(C2CC2)C2CC2)cc2c3c(ncn3C)c(Nc3cc(C)n(C)n3)nc21 | – | cancer patients | oral, 200 mg twice daily, day 15, 342.0 h | – | plasma concentration | 5890 ng/mL |
| N#Cc1ccc2c(c1)[C@H]1CCCN(C(=O)c3ccc4[nH]cnc4c3)[C@H]1C2 | – | human, male | 10 mg, day 7 | – | androstenedione level | 6.9 nmol/L |
| CN(C)C(=O)c1cc2cnc(Nc3ccc(N4CCNCC4)cn3)nc2n1C1CCCC1 | – | human, expansion cohort, plasma | oral, 800 mg, day 14, with: gemcitabine 1000 mg/m^2 | – | AUC(0-8h) | 20.7 µg·h/mL |
| O=C(NCCc1cccnc1)c1ccc(C2CCCCC2)cc1 | hepatocyte stability | cryopreserved human hepatocytes | 1 µM | – | hepatic clearance | 19 mL/min/kg |
| NC1(C(=O)N[C@@H](CCO)c2ccc(Cl)cc2)CCN(c2nc[nH]c3nccc2-3)CC1 | – | metastatic CRPC patients | 320 mg b.i.d., any grade, treatment-related, with: enzalutamide 160 mg daily | – | incidence of SIRS | 0% |
| COc1cc2c(Nc3ccc(Cl)c(Cl)c3F)ncnc2cc1OC[C@@H]1C[C@@H]2CN(C)C[C@@H]2C1 | – | FVB wild-type mouse | oral, 70 mg/kg, 2 h | – | unbound plasma concentration | 20.7 ng/mL |
| O=C(Nc1nc2cccc(-c3ccc(CN4CCS(=O)(=O)CC4)cc3)n2n1)C1CC1 | refers to: anaemia | rheumatoid arthritis patients | oral, 30 mg once daily, 4 weeks, any relatedness | – | patients with adverse event | 0% |
| Nc1ccccc1C(=O)C[C@@H](N)C(=O)O | ultrafiltration | normal rat serum | 37 °C | – | serum protein binding | 91 ± 10% |
| COc1cc(Nc2ncc3c(n2)-c2ccc(Cl)cc2C(c2c(F)cccc2OC)=NC3)ccc1C(=O)O | – | patients | oral, dose not given, grade 3, any attribution, with: pembrolizumab | – | decreased neutrophil count incidence | 13% |

| Structure (SMILES) | test | system | conditions | scale | quantity | value |
| --- | --- | --- | --- | --- | --- | --- |
| CCN1/C(=C/C(C)=O)Sc2ccc(F)cc21 | – | cynomolgus monkey | oral, 10 mg/kg, 6 h post-dose | – | mean blood pressure | 95 ± 6 mmHg |
| CC(C)(C(=O)N1CCOc2c(C#N)cncc2C1)C(F)F | refers to: skin disorders | healthy humans, both sexes | oral, 40 mg single dose | – | share of subjects with TEAE | 16.7% |
| NC(=O)CCNC(=O)c1ccc(C2CCCCC2)cc1 | liver microsome stability | rat liver microsomes | 1 µM | – | hepatic clearance | 40 mL/min/kg |
| CCOc1c([C@H](C)n2nc(C)c3c(N)ncnc32)cc(Cl)c(F)c1[C@@H]1CNC(=O)C1 | – | human B-cell malignancy patients | oral, all doses, baseline below threshold | – | observations with PR ≤200 ms | 91.1% |
| CN1CCN(C(=O)c2ccc(C3CCCCC3)cc2)CC1 | hepatocyte stability | cryopreserved human hepatocytes | 1 µM | – | hepatic clearance | 12 mL/min/kg |
| Cc1cc(Nc2ccc(S(F)(F)(F)(F)F)cc2)n2nc(C(C)(F)F)nc2n1 | LC-MS/MS | human vivax malaria patients, plasma | oral, 400 mg, mean | – | AUC(0-168 h) | 657 µg·h/mL |
| CNCc1ccc(-c2[nH]c3cc(F)cc4c3c2CCNC4=O)cc1 | – | human patients | oral, 600 mg twice daily, grade 1 | – | pulmonary embolism incidence | 0% |
| Cc1noc(C)c1-c1cc(C(O)(c2ccccn2)c2ccccn2)c2nc(C3CC3)[nH]c2c1 | – | human patients, fasted, plasma | oral, 3 mg once daily, cycle 1 day 15, with: enzalutamide once daily | – | Ctau | 8.8 ng/mL |
| C[C@]12CC[C@@H]3c4ccc(O)cc4CC[C@H]3[C@@H]1CCC2=O | – | cow whole milk | 200 nM | baseline: milk fat over skim milk | milk fat partition ratio | 62.8 |
| CC(C)C[C@@H]1NC(=O)[C@H](C)N(C)C(=O)[C@H](Cc2ccccc2)NCc2ccc([nH]2)CNC1=O | PAMPA | 2% lecithin in dodecane | 100 µM, 17 h, pH 6.4, 37 °C | – | -log Pe | 5.01 |
| Cc1cc(C)c(CNC(=O)c2cc(Cl)c3c(c2C)O[C@@](C)([C@H]2CC[C@H](N(C)C)CC2)O3)c(=O)[nH]1 | refers to: Neutropenia | human patients | oral, 200 mg once daily, 1 day onset day 14 | – | patients with grade ≥3 TEAE | 4.2% |
| O=C1CCc2ccc(OCCCCN3CCN(c4cccc(Cl)c4Cl)CC3)cc2N1 | catalepsy, bar test | Sprague-Dawley rat | intraperitoneal, dose not given, 60 min | – | time on bar | < 20 s |
| NS(=O)(=O)c1cccc(-c2ccc(C3CCCCC3)cc2)c1 | hepatocyte stability | cryopreserved mouse hepatocytes | 1 µM | – | hepatic clearance | 42 mL/min/kg |
| C=CC(=O)Nc1cc(Nc2nccc(-c3cn(C4CC4)c4ccccc34)n2)c(OC)cc1N(C)CCN(C)C | long-term storage stability | rat plasma | 160 ng/mL, 3 weeks, -80 °C | baseline: nominal concentration | relative error | -10.6% |
| COc1cccc(OC)c1-c1cc(C(=O)NC2(C(=O)O)C3CC4CC(C3)CC2C4)nn1-c1ccc(C(=O)N(C)CCCN(C)CCCN(C)C(=O)CN2CCN(CC(=O)[O-])CCN(CC(=O)[O-])CCN(CC(=O)[O-])CC2)cc1C(C)C.[177Lu+3] (stereo not drawn) | – | mouse, HT-29 xenograft, lung | 168 h post injection | – | tissue uptake | 0.38 %ID/g |
| NCCONC(=O)[C@@H]1CC[C@@H]2CN1C(=O)N2OS(=O)(=O)O | refers to: increased vitamin C | healthy Chinese men | intravenous, 1 g, treatment-emergent | – | adverse event incidence | 0% |
| C=CC(=O)Nc1cc(Nc2nccc(Nc3cc(Cl)c(F)cc3C(C)(C)O)n2)c(OC)cc1N1CC[C@@H](N(C)C)C1 | – | male Han Wistar rat, brain | intravenous infusion, 2 µmol/kg/h, 4 h | baseline: plasma | tissue/plasma ratio | 0.25 ± 0.05 |
| CCOCc1nc(O)c(-c2nnc(Cc3ccc(Cl)cn3)o2)c(O)c1-c1c(OC)cccc1OC | – | rat, post surgery, plasma | oral, 0.06 mg/kg once daily, day 6 post surgery | – | trough concentration | 3 nM |
| CC(C(=O)Nc1ccc(C2CCCCC2)cc1)n1cncn1 (stereo not drawn) | – | mouse liver microsomes | 1 µM | – | hepatic clearance | 72 mL/min/kg |
| Cc1cc(NC2CCN(C(=O)OC3CCN(C(=O)/C=C/CN(C)C)C3)CC2)n2ncc(C(C)C)c2n1 (stereo not drawn) | CTCAE v4.0, refers to: Hyponatremia | patients with advanced solid tumours | oral, dose not given, TIW, grade 3 or higher | – | patients with TEAE | 18% |
| O=C(CC1CCOCC1)Nc1ccc(C2CCCCC2)cc1 | – | cryopreserved rat hepatocytes | 1 µM | – | hepatic clearance | 47 mL/min/kg |
| C=CC(=O)Nc1cc(Nc2nccc(-c3cn(C)c4ccccc34)n2)c(OC)cc1N(C)CCN(C)C | storage stability | human dried blood spot | 2 h, on ice, HQC level | – | recovery | 106% |
| CN(CCC#N)C(=O)c1ccc(C2CCCCC2)cc1 | liver microsome stability | mouse liver microsomes | 1 µM | – | hepatic clearance | 87 mL/min/kg |
| CC(=O)N(C(=O)c1cc(C(F)(F)F)cc(C(F)(F)F)c1)c1ccccc1 | chemical stability, HPLC-MS | borate buffered saline | pH 10.2, no N-acetyl-lysine | – | degradation rate constant | 0.5 h⁻¹ |

For quick reference, copied from above:
| Structure (SMILES) | test | system | conditions | scale | quantity | value |
| --- | --- | --- | --- | --- | --- | --- |
| C=CC(=O)Nc1cc(Nc2nccc(-c3cn(C4CC4)c4ccccc34)n2)c(OC)cc1N(C)CCN(C)C | long-term storage stability | rat plasma | 160 ng/mL, 3 weeks, -80 °C | baseline: nominal concentration | relative error | -10.6% |
| NCCONC(=O)[C@@H]1CC[C@@H]2CN1C(=O)N2OS(=O)(=O)O | refers to: increased vitamin C | healthy Chinese men | intravenous, 1 g, treatment-emergent | – | adverse event incidence | 0% |
| CC(C)(c1ccc(O)cc1)c1ccc(O)cc1 | – | whole cow milk | 200 nM nominal | – | dose fraction in skim milk | 56.8% |
| Nc1ccccc1C(=O)C[C@@H](N)C(=O)O | ultrafiltration | normal rat serum | 37 °C | – | serum protein binding | 91 ± 10% |
| CNCc1ccc(-c2[nH]c3cc(F)cc4c3c2CCNC4=O)cc1 | – | human patients | oral, 600 mg twice daily, grade 1 | – | pulmonary embolism incidence | 0% |
| COc1cccc(OC)c1-c1cc(C(=O)NC2(C(=O)O)C3CC4CC(C3)CC2C4)nn1-c1ccc(C(=O)N(C)CCCN(C)CCCN(C)C(=O)CN2CCN(CC(=O)[O-])CCN(CC(=O)[O-])CCN(CC(=O)[O-])CC2)cc1C(C)C.[177Lu+3] (stereo not drawn) | – | mouse, HT-29 xenograft, lung | 168 h post injection | – | tissue uptake | 0.38 %ID/g |
